Assay results pooled from the literature.
Every numbered part comes from another study and shows a few of its results, in no order. Changes are numbered by the printed parent chain.

Series 1 — target: CCNB3, cyclin fold, Cln2 fusion (human); technique: yeast growth competition, sequencing; matrix: yeast; notes: weak parent motif; baseline: not given; direction: higher = stronger binding; quantity: normalised enrichment score
Starting sequence: EXO1 docking peptide (human); KPECGRVQRAIFQ
K1A: -0.184
P2A: 0.179
G5A: -0.156
I11A: -0.0552
E3A: 0.236
V7A: 0.549

Series 2 — technique: aptamer microarray, sandwich; form: DNA with 2'F-ANA; matrix: in vitro; concentration: 200 nM; together with: Cy3 exosite-II aptamer, 400 nM; direction: higher = stronger binding; quantity: mean fluorescence intensity; oligonucleotide: GGTTGGTGTGGTTGG
Target: Prothrombin, mature alpha-thrombin (F2, Homo sapiens, UniProt P00734)
Notes: whole 15-mer aptamer, many near background
2'F-ANA at 1 4 10 15: 50.6 a.u.
2'F-ANA at 2 3 5 8 12 14 15: 65.6 a.u.
2'F-ANA at 3 4 6 7 8 9 10 12 13 14 15: 152 a.u.
2'F-ANA at 2 4 6 7 9 12 13: 315 a.u.
2'F-ANA at 3 4 6 8 11 13 14 15: 262 a.u.
2'F-ANA at 1 2 3 6 7 8 12 13 14: 91.4 a.u.
2'F-ANA at 2 7 10 11 12 14 15: 87.4 a.u.
2'F-ANA at 1 4 5 6 7 8 9 10 15: 48.2 a.u.
2'F-ANA at 1 8 10 11 12 13 14 15: 46.3 a.u.
2'F-ANA at 3 4 5 6 7 8 11 12 13 14 15: 55.4 a.u.
2'F-ANA at 1 2 3 4 7 9 12 13 15: 280 a.u.
2'F-ANA at 1 2 4 5 7 11 12 13 15: 69.8 a.u.
2'F-ANA at 9 10 11 15: 140 a.u.
2'F-ANA at 1 5 7 8 10 11 12 13 14 15: 46.3 a.u.
2'F-ANA at 5 6 11 13 15: 49.7 a.u.
2'F-ANA at 4 5 9 10 15: 43 a.u.
2'F-ANA at 3 4 5 7 12: 214 a.u.
2'F-ANA at 1 2 6 10 11 12 13 15: 63.5 a.u.
2'F-ANA at 1 3 5 7 10 11 12 13 14 15: 51.5 a.u.
2'F-ANA at 3 5 7 8 10 11 12 14 15: 53.7 a.u.
2'F-ANA at 4 6 7 8 9: 333 a.u.
2'F-ANA at 1 3 4 5 6 7 8 9 10 11 13: 50.1 a.u.
2'F-ANA at 3 6 7 8 10 11 13 14: 375 a.u.
2'F-ANA at 1 4 8 9 10: 53.6 a.u.
2'F-ANA at 1 4 6 7 9 13: 72.7 a.u.

Series 3 — technique: universal PBM; form: double-stranded DNA, one strand shown; matrix: in vitro; concentration: not given; direction: higher = stronger binding; quantity: E-score
Target: Sal-like protein 4, full length isoform B (SALL4, Homo sapiens, UniProt Q9UJQ4-2, residues 1-616)
Notes: 8-mer, flanks averaged, mean of replicates
Target sequence (chain): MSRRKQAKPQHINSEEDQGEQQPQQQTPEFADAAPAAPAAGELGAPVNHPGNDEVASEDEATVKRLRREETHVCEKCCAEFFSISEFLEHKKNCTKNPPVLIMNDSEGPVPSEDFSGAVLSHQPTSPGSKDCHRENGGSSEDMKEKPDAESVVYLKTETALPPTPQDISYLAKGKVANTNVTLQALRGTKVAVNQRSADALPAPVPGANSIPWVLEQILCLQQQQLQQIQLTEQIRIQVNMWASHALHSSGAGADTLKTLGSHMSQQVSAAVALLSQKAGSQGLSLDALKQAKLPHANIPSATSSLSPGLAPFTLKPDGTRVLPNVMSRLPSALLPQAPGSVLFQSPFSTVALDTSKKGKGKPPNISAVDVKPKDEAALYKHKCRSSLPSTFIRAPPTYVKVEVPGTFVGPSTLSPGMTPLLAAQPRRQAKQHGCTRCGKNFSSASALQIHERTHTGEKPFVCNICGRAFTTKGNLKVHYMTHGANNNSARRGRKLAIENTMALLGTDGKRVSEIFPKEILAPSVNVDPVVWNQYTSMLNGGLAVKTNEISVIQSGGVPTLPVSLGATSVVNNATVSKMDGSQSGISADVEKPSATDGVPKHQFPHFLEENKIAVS
ACCATATC: 0.157
CTCTCACC: -0.203
TCATAGCA: 0.145
CAGCCCTA: -0.174
CTTTAAAC: 0.0737
CTGGCGCA: -0.253
CTTTTGGC: 0.00512
GTTTAAGA: -0.0556
AATGATCC: 0.108
GTTCAAGA: 0.0457
AGGAGGCC: -0.298
CAGAACAG: -0.104
CGCGTCCA: -0.138
CCGATTAA: 0.119
AGGGGCGC: -0.308
TAAATAGA: 0.163
ATGCGAAC: -0.00485

Series 4 — target: UBE2E2 UBC core domain (UniProt Q96LR5); technique: yeast two-hybrid; matrix: yeast; notes: mostly zero background; baseline: not given; direction: higher = stronger interaction; quantity: lacZ reporter activity
Sequence of UniProt Q96LR5 (whole entry, looked up): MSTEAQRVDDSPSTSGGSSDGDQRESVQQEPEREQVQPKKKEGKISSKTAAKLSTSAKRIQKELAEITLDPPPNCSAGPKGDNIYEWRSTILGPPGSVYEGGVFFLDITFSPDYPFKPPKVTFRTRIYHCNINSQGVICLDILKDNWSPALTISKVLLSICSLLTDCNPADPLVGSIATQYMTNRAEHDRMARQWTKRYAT
B1: RNF166 RING domain (UniProt Q96A37); chain GDSGLEAQYTCPICLEVYHRPVAIGSCGHTFCGECLQPCLQVPSPLCPLCRLPFDPKKVDK
B2: DEF8 RING domain (UniProt Q6ZN54); chain AGRLGCSLTEIHTLFAKHIKLDCERCQAKGFVCELCREGDVLFPFDSHTSVCADCSAVFHRDCYYDNSTTCPKCARLSLRK
B3: RNF152 RING domain (UniProt Q8N8N0); chain ETLSQDSLLECQICFNYYSPRRRPKLLDCKHTCCSVCLQQMRTSQKDVRCPWCRGVTKLPPGFS
B4: TRIM31 RING domain (UniProt Q9BZY9); chain FVNKLQEEVICPICLDILQKPVTIDCGHNFCLKCITQIGETSCGFFKCPLCKTSVRKNAIRF
B1 (RNF166 RING domain): 0
B2 (DEF8 RING domain): 0
B3 (RNF152 RING domain): 0
B4 (TRIM31 RING domain): 0
QVQSRTKIEECVVCSDKKAAVLFQPCGHMCACENCANLMKKCVQCRAVVERRVPFI (MIB1 RING domain (UniProt Q86YT6)): 0

Series 5 — technique: RNA Bind-n-Seq; form: RNA; matrix: in vitro; concentration: 365 nM; baseline: no-protein control; direction: higher = stronger binding; quantity: RBNS enrichment (R)
Target: RNA binding protein fox-1 homolog 2, RRM domain, GST-SBP tag (RBFOX2, Homo sapiens, UniProt O43251-10, residues 100-194)
Notes: natural RNA segment, single round, ends assumed
Construct (chain): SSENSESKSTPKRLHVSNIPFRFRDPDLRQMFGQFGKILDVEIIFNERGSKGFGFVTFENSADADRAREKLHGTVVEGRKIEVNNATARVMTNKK
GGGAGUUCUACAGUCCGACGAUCGACCUGGGGUGGUGGGCAUCUGGCUGAACCUUGAGGAGGGAAAGCUUGCCUUCUAUUCAGUGGACAAUCAGGAGAAGCUUCUGUAUGAGUGUACCAUCUCUGCCUCCUCUUGGAAUUCUCGGGUGCCAA: 0.553
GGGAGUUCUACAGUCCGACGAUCCUGUGCCUUCCAGCAUCUUGUACAGCAAACCCUGACUUGUCUUUAUACCCCCAAAAUACCGUCUUCAGUAGCGACUGAAUCUGCCACUGUCAAAAUACGUUACUUGCAUUUGGAAUUCUCGGGUGCCAA: 10.2
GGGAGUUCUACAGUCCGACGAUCGGAAAUAAAUUCACUAUUAAUUCAUGUCUUAAGUUACUUGGGUUAAAACACUUUCAGCCACCCAGAUUAAUUAAAGUGGAGCAGUGGAGCCCCUGGCUGGGAGAUGGCCUUGGAAUUCUCGGGUGCCAA: 0.375
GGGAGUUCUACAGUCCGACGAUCAAAUAUAUUAUGUCACUAUUCAGUUCAUGGAGGUUUGUGCUUUUUCAUAUUUUGUGAUAUAUAAGUAGUGAACACACAUGUUAUUUACUUCAAAAGACAGGAUUGACAAAUGGAAUUCUCGGGUGCCAA: 0.323
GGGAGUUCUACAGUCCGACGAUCUCAAAUCUUCAUGAAUGGCAUCACUUGCUUUAGACCCAUUUUUUUUUUAUUGGUCAGAAAUAAAAUGUGACUGCAACUGUGUGCCCUCCCUUGUCGUGAAUUCCCUGUUUUGGAAUUCUCGGGUGCCAA: 0.513
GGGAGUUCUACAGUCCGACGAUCCUGUGCAGGAGUGGCCGGGGAAGCUGGCAGCACUCAGUGAGGCCGCCCGGCACACAAGGCACGUUUGGCAUUUCUCUUUGAGAGAGUUUAUCAUUGGGAGAAGCCGCAGGUGGAAUUCUCGGGUGCCAA: 0.266
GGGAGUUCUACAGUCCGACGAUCUUGAUUAAAAAAAAUAUAUCUACAUAGUCUUAAUUUGUAAAAAAUAAAGAAAAUUCCUUAACCUUUGCUGGUGUCUCAGUGUUAAAUCAGGGGCAUGCUGGGUUAGGGUUUGGAAUUCUCGGGUGCCAA: 1.16
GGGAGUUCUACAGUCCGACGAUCACAGAGCUACCCACUGCAGCGGCCUGACUGUGCAGCACUCAGCUCUUUGGCUCUCUCUGAAAUGCCCGUCUCAUCCUGUCUUUUUCGAGCAUGGCUCACAGGCCUUGUGUUGGAAUUCUCGGGUGCCAA: 0.504

A few entries again (series 3):
CTTTTGGC: 0.00512
GTTTAAGA: -0.0556
AATGATCC: 0.108
GTTCAAGA: 0.0457
AGGAGGCC: -0.298
